# Measured values from different studies.
# Lines come from different studies, so protocols differ.
# Organism: Staphylococcus aureus
Structure (SMILES),assay,system,conditions,MIC
O=C1c2ccccc2C(=O)c2c1ccc1c2C(C(=O)Nc2ccc(Cl)cc2)C(=O)C1c1ccccc1 (stereo not shown),microbial growth,,,64 µg/mL
CCCCCCCCCCN1C(=O)/C(=N\NC(N)=S)c2cc(C)ccc21,broth microdilution,29213,"18 h, 37 °C",> 192 µg/mL
CNC(CC(C)C)C(=O)NC1C(=O)NC(CC(N)=O)C(=O)NC2C(=O)NC3C(=O)NC(C(=O)NC(C(=O)O)c4cc(O)cc(O)c4-c4cc3ccc4O)C(O)c3ccc(c(Cl)c3)Oc3cc2cc(c3OC2OC(CO)C(O)C(O)C2OC2CC(C)(NC(=O)CCCCCCCC[N+](C)(C)Cc3ccccc3)C(O)C(C)O2)Oc2ccc(cc2Cl)C1O (stereo not shown),agar dilution,MRSA clinical isolate MRSA4,,128 µg/mL
CN1/C(=C/C=C/c2cc(-c3ccccc3)cc(-c3ccccc3)[o+]2)C(C)(C)c2ccccc21,broth dilution,"USA300, MRSA",,0.5 µg/mL
CC(C)C[C@H](NC(=O)[C@H](CC(N)=O)NC(=O)[C@H](CCCNC(=N)N)NC(=O)[C@@H](CC(C)C)NC(=O)[C@H](Cc1ccc(-c2ccccc2)cc1)NC(=O)[C@H](CC(=O)O)NC(=O)[C@H](CCCCN)NC(=O)[C@@H](CC(C)C)NC(=O)[C@H](CCCNC(=N)N)NC(=O)[C@H](CCC(N)=O)NC(=O)[C@@H](NC(=O)[C@@H](CC(C)C)NC(=O)[C@H](CCCNC(=N)N)NC(=O)[C@H](CCCCN)NC(=O)[C@H](Cc1ccc(-c2ccccc2)cc1)NC(=O)CN)C(C)C)C(=O)N[C@H](C(N)=O)C(C)C,,USA300 LAC,"overnight, pepsin pretreated",4 µM
CN(C)c1cc(CNC2CCCCC2)c(O)c2c1C[C@H]1C[C@H]3[C@H](N(C)C)C(O)=C(C(N)=O)C(=O)[C@@]3(O)C(O)=C1C2=O,"microbial growth, broth dilution",,,2 µg/mL
CC(C)C[C@@H]1NC(=O)[C@@H](CC(C)C)NC(=O)[C@H](CCN)NC(=O)[C@@H](NC(=O)[C@H](CCN)NC(=O)[C@@H](N)[C@@H](C)O)CCNC(=O)[C@H]([C@@H](C)O)NC(=O)[C@H](CCN)NC(=O)[C@H](CCN)NC1=O,broth microdilution,"MRSA USA300, CAMHB with polysorbate-80",16 h,> 64 µg/mL
CN(C)c1cc(CNC2CCCC2)c(O)c2c1C[C@H]1C[C@H]3[C@H](N(C)C)C(O)=C(C(N)=O)C(=O)[C@@]3(O)C(O)=C1C2=O,,"RN4250, Tet K efflux",,1 µg/mL
CCn1[c]([Au-][Cl])[n+](CC)c2ccc(C(=O)OC)cc21,broth dilution,MRSA DSM 11822,"20 h, 37 °C",2.2 µM
C=C(NC(=O)C(=C)NC(=O)c1csc(C2=NC3c4csc(n4)C4NC(=O)c5csc(n5)C(C(C)(O)C(C)O)NC(=O)C5CSC(=N5)C(=CC)NC(=O)C(C(C)O)NC(=O)c5csc(n5)C3(CC2)NC(=O)C(C)NC(=O)C(=C)NC(=O)C(=C)NC(=O)C(C(C)CC)NC2C=Cc3c(C(C)O)cc(nc3C2O)C(=O)OC4C)n1)C(N)=O (stereo not shown),broth microdilution,ATCC 10537 MRSA,"18 h, 37 °C",0.01 µg/mL
CCN(CC)CCCN1/C(=C/c2cc[n+](C)c3ccccc23)Sc2ccccc21,"microbial growth, broth dilution",ATCCBAA41 MRSA,,2 µg/mL
CO[C@H]1[C@H](O)[C@@H](N)[C@@H](O[C@H]2[C@H](O[C@@H]3O[C@H](CO)[C@@H](O[C@H]4O[C@@H](CN)[C@@H](O)[C@H](O)[C@H]4N)[C@H]3O)[C@@H](O)[C@H](N)C[C@@H]2N)O[C@@H]1CO,broth microdilution,MRSA isolate AG 045,,32 µg/mL
C/C(=N\NC(N)=S)c1ccc2c(c1)sc1nc(=O)c(C#N)cn12,"microbial growth, broth dilution",,,< 57 µg/mL
CN(C)c1cc(CNCc2ccco2)c(O)c2c1C[C@H]1C[C@H]3[C@H](N(C)C)C(O)=C(C(N)=O)C(=O)[C@@]3(O)C(O)=C1C2=O,,"MRSA 5, Tet M ribosome protection",,1 µg/mL
COc1cc(NC(=O)CSc2nc3ccccc3c(=O)n2-c2ccc(S(N)(=O)=O)cc2)cc(OC)c1OC,,methicillin-resistant,"24 h, 37 °C",31.2 µg/mL
CC(C)CCCCCCCCC/C=C/C(=O)N[C@@H](CC(=O)O)C(=O)N[C@H]1CNC(=O)[C@@H]2CCCN2C(=O)[C@H](C(C)C)NC(=O)[C@@H]([C@@H](C)O)NC(=O)CNC(=O)[C@H](CC(=O)O)NC(=O)CNC(=O)[C@H](CC(=O)O)NC(=O)CNC(=O)[C@H]2CCCCN2C1=O,,MRSA USA300,added: Ca2+ 1 mM,8 µg/mL
O=C(c1cc(Cl)c(Cl)[nH]1)c1ccccc1O,"microbial growth, broth dilution",NCTC8325,20 h,2 µg/mL
NC[C@@H]1O[C@H](O[C@H]2[C@@H](O)[C@H](O[C@@H]3[C@@H](O)[C@H](N)C[C@H](N)[C@H]3O[C@H]3O[C@H](CO)[C@@H](OCCO)[C@H](O)[C@H]3N)O[C@@H]2CO)[C@H](N)[C@@H](O)[C@@H]1O,broth microdilution,MRSA isolate AG 039,,32 µg/mL
C[C@H]1COc2c(N3CCN(C)CC3)c(F)cc3c(=O)c(C(=O)N[C@@H](CCCNC(=N)N)C(=O)N[C@@H](Cc4ccc(-c5ccccc5)cc4)C(=O)N[C@@H](CCCNC(=N)N)C(=O)N[C@@H](Cc4ccc(-c5ccccc5)cc4)C(=O)N[C@@H](CCCNC(=N)N)C(N)=O)cn1c23,broth microdilution,ATCC BAA-44,,20 µM
CCCCN(CCCC)CC(O)COc1c2ccoc2c(OC)c2oc(CC)cc(=O)c12 (stereo not shown),"microbial growth, broth dilution",ATCC25,19 h,256 µg/mL
CN(C)c1cc(CNCC2CCCCC2)c(O)c2c1C[C@H]1C[C@H]3[C@H](N(C)C)C(O)=C(C(N)=O)C(=O)[C@@]3(O)C(O)=C1C2=O,"microbial growth, broth dilution",,,1 µg/mL
CC[C@H](C)[C@H](N)C1=N[C@H](C(=O)N[C@@H](CC(C)C)C(=O)N[C@H](CCC(=O)O)C(=O)N[C@H](C(=O)N[C@H]2CCCCNC(=O)[C@H](CC(N)=O)NC(=O)[C@@H](CC(=O)O)NC(=O)[C@H](Cc3c[nH]cn3)NC(=O)[C@@H](Cc3ccccc3)NC(=O)[C@H]([C@@H](C)CC)NC(=O)[C@@H](CCCN)NC2=O)[C@@H](C)CC)CS1,,"ATCC 29213 MSSA, LB broth","18 h, 37 °C, added: 0.3 mM ZnSO4",2 µg/mL
CN(C)c1cc(CNCc2ccccc2)c(O)c2c1C[C@H]1C[C@H]3[C@H](N(C)C)C(O)=C(C(N)=O)C(=O)[C@@]3(O)C(O)=C1C2=O,,"MRSA 5, Tet M ribosome protection",,0.5 µg/mL
Nn1c(CCCc2ccccc2)nc2ccccc2c1=O,broth microdilution,RN6390B,,> 100 µM
CC(CCCOC(=O)CCC[N+](C)(C)C)C1CCC2C3CCC4CC(OC(=O)CCC[N+](C)(C)C)CCC4(C)C3CC(OC(=O)CCC[N+](C)(C)C)C12C (stereo not shown),"microbial growth, broth dilution",ATCC29213,16 h,2 µg/mL
CNC(CC(C)C)C(=O)NC1C(=O)NC(CC(N)=O)C(=O)NC2C(=O)NC3C(=O)NC(C(=O)NC(C(=O)O)c4cc(O)cc(O)c4-c4cc3ccc4O)C(O)c3ccc(c(Cl)c3)Oc3cc2cc(c3OC2OC(CO)C(O)C(O)C2OC2CC(C)(NC(=O)CCCC[n+]3ccccc3)C(O)C(C)O2)Oc2ccc(cc2Cl)C1O (stereo not shown),agar dilution,MRSA clinical isolate MRSA4,,64 µg/mL
O=C1/C(=C(\O)C2CCCCC2)C(=O)[C@@]2(C(=O)OC3CCCCC3)CS[C@H](c3ccccc3)N12,broth dilution,MRSA,"added: Fe3+, Ca2+, Mg2+, Zn2+ at blood levels",7.81 µg/mL
CC(=O)NCc1cc(N(C)C)c2c(c1O)C(=O)C1=C(O)[C@]3(O)C(=O)C(C(N)=O)=C(O)[C@@H](N(C)C)[C@@H]3C[C@@H]1C2,,"RN4250, Tet K efflux",,> 64 µg/mL
CCCCCCCCCc1nc2ccccc2c(=O)n1CCN,broth microdilution,RN6390B,,50 µM
CN(C)c1cc(CN2CCOCC2)c(O)c2c1C[C@H]1C[C@H]3[C@H](N(C)C)C(O)=C(C(N)=O)C(=O)[C@@]3(O)C(O)=C1C2=O,,"RN4250, Tet K efflux",,2 µg/mL
C=CCC1COC(=O)N1/N=C/c1ccc([N+](=O)[O-])o1 (stereo not shown),"microbial growth, broth dilution",ATCC29213,18 h,> 50 µg/mL

# Repeated from above:
Structure (SMILES),assay,system,conditions,MIC
C=C(NC(=O)C(=C)NC(=O)c1csc(C2=NC3c4csc(n4)C4NC(=O)c5csc(n5)C(C(C)(O)C(C)O)NC(=O)C5CSC(=N5)C(=CC)NC(=O)C(C(C)O)NC(=O)c5csc(n5)C3(CC2)NC(=O)C(C)NC(=O)C(=C)NC(=O)C(=C)NC(=O)C(C(C)CC)NC2C=Cc3c(C(C)O)cc(nc3C2O)C(=O)OC4C)n1)C(N)=O (stereo not shown),broth microdilution,ATCC 10537 MRSA,"18 h, 37 °C",0.01 µg/mL
O=C1/C(=C(\O)C2CCCCC2)C(=O)[C@@]2(C(=O)OC3CCCCC3)CS[C@H](c3ccccc3)N12,broth dilution,MRSA,"added: Fe3+, Ca2+, Mg2+, Zn2+ at blood levels",7.81 µg/mL
